Measurements from different studies.
Numbered parts are unrelated; each lists some results of a single study.

Sample 1 — method: RNA Bind-n-Seq; molecule type: RNA; sample: in vitro; tested at: 365 nM; baseline: no-protein control; direction: higher = stronger binding
Target: RNA binding protein fox-1 homolog 2, RRM domain, GST-SBP tag (RBFOX2, Homo sapiens, UniProt O43251-10, residues 100-194)
Notes: natural RNA segment, single round, ends assumed
Constant ends, left off below: GGGAGUUCUACAGUCCGACGAUC … UGGAAUUCUCGGGUGCCAA
Target sequence (chain): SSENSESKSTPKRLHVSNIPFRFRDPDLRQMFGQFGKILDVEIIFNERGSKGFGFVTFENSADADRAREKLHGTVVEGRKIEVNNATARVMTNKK
`AGGCUCGAUUCUGCCCUCUCUUUUUAACCAUCUCCCUUGUAGAUGAUCCGGGCCACUAGAGAUUAGCUUCCAUUGCCUGAGGCAGAGGGAGGACACAGGUCUUCCUGGAG` — result for “RBNS enrichment (R)”: 0.246.
`AACGAACGCUGCAGAGUUUACUGAUGUAUAUCAAAGGCCAAUAAGCUCUUUUAAUUGGUGACAGAUCAUGCGGUAUGUCCCUAUUACAAAUGUAAGUCUUGGAGAAGGGU`: “RBNS enrichment (R)” 0.353.
Under “RBNS enrichment (R)”, `CAUGUUGAUCAGUCAGAGGAACUGAGAAAGCCACUAGAUCCAAGCUUAGUCCCAAGAAGAGGGUGAAGACUCGGCUGAGUCACUUGUGUGUGACCCCUACCAGAACAGAG` is recorded as 0.421.
`UAAGAAUAAGCCUAUGGUCAUGGGCAAGAAGGGCCAACAUAGACACUUGGGUAGAAAUACAGUCUGAUCAAGCAACGGUGUAAGGAAAAGUCCCUAAUUCACAACCUCCU`: “RBNS enrichment (R)” 0.433.
For `AGAACCUAAUGAAAGGACCACGUUUUAUUUAUUGUGCUUUUGAUUGAACCACCAUAGACCUAGUAAGUGAGCCCAGUGUGUCCUCCCAUGUAAGAGCCAGGUGUUCAGUG`, “RBNS enrichment (R)” read 0.331.
`UGUUCGUUUUAGUUUACUGGGGACACACAGGAGUCUUUCUGUAAUGACUUAUGUGGUAAAAUGUUUGAGAGUUUGCACUCAAUUUUAAAGAAUUUGCAGUUUCUAACAAG` — result for “RBNS enrichment (R)”: 0.532.
Under “RBNS enrichment (R)”, `UAAAACAUUUUAUGUUUUUUAGAUGCUUUAUUAAAUACAUGGCCAAACCAAAUAACAUCUUUCAGUAAUUAUAGAAUGAUUUAUUUGGAAUAAAAUUUGUGCUUAUGAAU` is recorded as 0.555.

Sample 2 — method: protein-binding microarray; molecule type: double-stranded DNA, one strand shown; sample: in vitro; tested at: 0.8 µM; notes: whole 60-bp probe, no competitor; direction: higher = stronger binding; constant ends, left off below: … GTCTTGATTCGCTTGACGCTGCTG
Target: Centromere-binding protein 1, full length, N-terminal tag (CBF1, Saccharomyces cerevisiae, UniProt P17106, residues 1-351)
Sequence of UniProt P17106 (whole entry, looked up): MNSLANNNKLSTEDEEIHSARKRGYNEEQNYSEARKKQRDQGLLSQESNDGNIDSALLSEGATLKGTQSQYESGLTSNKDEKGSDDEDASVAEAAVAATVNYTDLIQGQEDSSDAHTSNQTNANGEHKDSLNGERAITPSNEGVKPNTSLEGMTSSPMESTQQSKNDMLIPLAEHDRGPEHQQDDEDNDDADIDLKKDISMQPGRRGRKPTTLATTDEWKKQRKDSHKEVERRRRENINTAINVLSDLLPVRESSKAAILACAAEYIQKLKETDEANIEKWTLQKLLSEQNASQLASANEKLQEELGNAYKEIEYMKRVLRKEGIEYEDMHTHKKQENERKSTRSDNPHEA
`GAAATATTGGCCGCGCTGATGACGAACGACATTTAG` gave a fluorescence intensity of 504 a.u.
`GAACTTAGTAAGAGTCTCCTGTAGTTTTGCGTTTAG` gave a fluorescence intensity of 482 a.u.
`CTACATTATGATGTACACCTCACGTTAGTGCAATTC` has a fluorescence intensity of 584 a.u.
`GAAAGAGAGACAAAAGACGTGCTTCCGGAATTTTAG` has a fluorescence intensity of 514 a.u.
For `GAAAGGCAAAAAAGTTTCGTGACTGAACTTCTTTAG`, the fluorescence intensity was 561 a.u.
`CTAGGACGCTTCGGCGAGCTGATGTCTGACTTCTTC` gave a fluorescence intensity of 478 a.u.
`CCTAACTACTATAAGCACCTGAAATAGCTTCGTACA` has a fluorescence intensity of 529 a.u.
`GAATTGTTCCAAAATATCGTGATATTTGAAAGTTAG` has a fluorescence intensity of 644 a.u.
The fluorescence intensity of `CTAATAGACTATGAATCCGTCATGAAGACACTATTC` is reported as 529 a.u.

Sample 3 — method: Sort-seq; refers to: YFP reporter; sample: E. coli; notes: PhoQ-PhoP variant library; with: 10 µM Mg2+; baseline: high Mg2+ state; direction: higher = stronger signaling
Molecule: PhoQ, residues 284 288 289 292 302 303 AANNSF
PhoP, residues 12 14 15 18 19 LHTVL (Escherichia coli, UniProt P23836) — fold induction: 24.4.
PhoP, residues 12 14 15 18 19 TQAML (Escherichia coli, UniProt P23836) — fold induction: 26.4.
PhoP, residues 12 14 15 18 19 NQCAL (Escherichia coli, UniProt P23836) — fold induction: 13.9.

Sample 4 — method: universal PBM; molecule type: double-stranded DNA, one strand shown; sample: in vitro; tested at: 600 nM; direction: higher = stronger binding
Target: Sal-like protein 4, full length isoform A (SALL4, Homo sapiens, UniProt Q9UJQ4, residues 1-1053)
Sequence of UniProt Q9UJQ4 (whole entry, looked up): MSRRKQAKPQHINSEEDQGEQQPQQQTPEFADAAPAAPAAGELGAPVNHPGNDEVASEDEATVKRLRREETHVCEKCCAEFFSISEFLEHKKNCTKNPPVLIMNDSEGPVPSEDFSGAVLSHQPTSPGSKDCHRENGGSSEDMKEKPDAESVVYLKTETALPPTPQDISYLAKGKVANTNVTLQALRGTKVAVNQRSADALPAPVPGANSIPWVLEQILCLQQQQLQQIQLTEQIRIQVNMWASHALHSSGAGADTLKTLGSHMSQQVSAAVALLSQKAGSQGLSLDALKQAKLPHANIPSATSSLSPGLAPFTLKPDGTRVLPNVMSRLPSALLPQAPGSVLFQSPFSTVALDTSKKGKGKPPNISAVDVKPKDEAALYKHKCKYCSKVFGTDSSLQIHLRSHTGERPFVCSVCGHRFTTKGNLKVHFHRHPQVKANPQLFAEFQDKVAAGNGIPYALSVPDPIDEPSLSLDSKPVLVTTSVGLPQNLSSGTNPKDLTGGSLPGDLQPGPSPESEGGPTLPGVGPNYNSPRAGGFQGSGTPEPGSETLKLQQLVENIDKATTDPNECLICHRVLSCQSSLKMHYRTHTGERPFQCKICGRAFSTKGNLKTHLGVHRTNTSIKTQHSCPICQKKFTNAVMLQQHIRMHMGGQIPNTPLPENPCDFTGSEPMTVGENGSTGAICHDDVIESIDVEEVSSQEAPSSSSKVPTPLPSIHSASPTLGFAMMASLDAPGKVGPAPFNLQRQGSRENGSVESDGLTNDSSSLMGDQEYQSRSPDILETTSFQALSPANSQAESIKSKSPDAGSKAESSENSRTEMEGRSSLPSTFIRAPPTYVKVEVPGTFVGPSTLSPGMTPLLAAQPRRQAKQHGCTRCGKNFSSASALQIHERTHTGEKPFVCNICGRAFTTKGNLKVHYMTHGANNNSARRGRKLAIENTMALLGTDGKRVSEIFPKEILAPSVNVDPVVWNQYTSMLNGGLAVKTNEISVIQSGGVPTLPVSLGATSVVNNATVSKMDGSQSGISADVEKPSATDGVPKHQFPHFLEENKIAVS
Notes: 8-mer, flanks averaged, mean of replicates
`ACAGATAC` has an E-score of 0.138.
`AGGCAGTA` gave an E-score of -0.0871.
For `AGCTACCC`, the E-score was -0.0852.
For `GGCGACGA`, the E-score was -0.228.
`AAGATTCA` gave an E-score of 0.162.
`GCATCTTA` has an E-score of 0.135.
The E-score of `CAGCAATG` is reported as 0.0202.
With `AAAGACGG` the E-score was -0.104.
With `GAGGGAGA` the E-score was -0.123.

A few entries again (sample 3):
PhoP, residues 12 14 15 18 19 TQAML (Escherichia coli, UniProt P23836) — fold induction: 26.4.
PhoP, residues 12 14 15 18 19 NQCAL (Escherichia coli, UniProt P23836) — fold induction: 13.9.
